Measured values collected from several papers.
Compare with care: the assays were run in different laboratories. ± marks the error that the study gave.

| Structure (SMILES) | assay | test system | conditions | how to read | endpoint | result |
| --- | --- | --- | --- | --- | --- | --- |
| CSCC[C@H](NC(=O)CNC(=O)[C@H](CCCCN)NC(=O)[C@H](CC(C)C)NC(=O)[C@@H]1CCCN1C(=O)[C@H](CO)NC(=O)[C@H](Cc1c[nH]cn1)NC(=O)[C@H](Cc1c[nH]c2ccccc12)NC(=O)[C@H](CCCNC(=N)N)NC(=O)[C@H](CC(C)C)NC(=O)[C@H](CCCNC(=N)N)NC(=O)[C@H](Cc1c[nH]c2ccccc12)NC(=O)[C@H](CS)NC(=O)CCCCCNC(=O)CN1CCN(CC(=O)O)CCN(CC(=O)O)CCN(CC(=O)O)CC1)C(=O)O [copper-64 labelled] | – | BALB/c nude mouse, Huh-7 tumour, tumour and muscle | intravenous, 1.85 MBq, 18 h, ex vivo biodistribution | reference: tumour over muscle | tumour-to-muscle ratio | 11.2 |
| C[C@]12COc3ccc(OCc4ccccc4)cc3[C@H]1CCN2 | lipid PAMPA | PBS | 10 µM, 16 h, pH 7.4, 25 °C | – | permeability (Pe) | 5.01 ×10⁻⁶ cm/s |
| N#[11C]c1ccc(-c2csc(NN=C3CCCC3)n2)cc1 | – | C57BL/6 mice, male, thymus | intravenous, 3 MBq, 15 min | – | radioactivity uptake | 2.96 ± 1.17 %ID/g |
| CCCC[C@@H]1NC(=O)[C@H](Cc2ccc(O)cc2)NC(=O)[C@@H]2CCCN2C(=O)[C@H](CC(=O)O)NC(=O)[C@H](C)NC(=O)[C@H](Cc2ccccc2)NC(=O)[C@@H]2CSCCC(=O)N3CN(CN(C3)C(=O)CCSC[C@@H](C(=O)N[C@@H](C)C(N)=O)NC1=O)C(=O)CCSC[C@H](NC(C)=O)C(=O)N[C@@H](CC(C)(C)C)C(=O)N1CCC[C@H]1C(=O)N[C@@H](CCC(=O)O)C(=O)N[C@H](CCCCNC(=O)CCc1cn(CCOCCOCCOCCN(CCOCCOCCOCCC(=O)N[C@H]3CSCCC(=O)N4CN5CN(C4)C(=O)CCSC[C@H](NC(=O)[C@@H](CC(=O)O)NC(=O)[C@H](Cc4cccc6ccccc46)NC(=O)[C@@H]4CCCN4C3=O)C(=O)N[C@@H](CCSC)C(=O)N[C@@H](CCCCNC(=N)N)C(=O)N[C@@H](CC(=O)O)C(=O)N[C@@H](Cc3c[nH]c4ccccc34)C(=O)N[C@@H](CO)C(=O)N[C@@H]([C@@H](C)O)C(=O)N3CCC[C@H]3C(=O)N3C[C@H](O)C[C@H]3C(=O)N[C@@H](Cc3c[nH]c4ccccc34)C(=O)N[C@H](C(N)=O)CSCCC5=O)CCOCCOCCOCCn3cc(CCC(=O)NCCCC[C@H]4NC(=O)[C@H](CCC(=O)O)NC(=O)[C@@H]5CCCN5C(=O)[C@H](CC(C)(C)C)NC(=O)[C@@H](NC(C)=O)CSCCC(=O)N5CN6CN(C5)C(=O)CCSC[C@H](NC(=O)[C@H](Cc5ccc(O)cc5)NC(=O)[C@@H]5CCCN5C4=O)C(=O)N[C@@H](Cc4ccccc4)C(=O)N[C@@H](C)C(=O)N[C@@H](CC(=O)O)C(=O)N4CCC[C@H]4C(=O)N[C@@H](Cc4ccc(O)cc4)C(=O)N[C@@H](CCCC)C(=O)N[C@H](C(=O)N[C@@H](C)C(N)=O)CSCCC6=O)nn3)nn1)C(=O)N1CCC[C@H]1C(=O)N[C@@H](Cc1ccc(O)cc1)C(=O)N2 | – | cynomolgus monkey | – | – | Vdss | 0.88 ± 0.23 L/kg |
| CC[C@H](C)[C@H](NC(=O)[C@H](CCCCN)NC(=O)CNC(=O)[C@H](CC(C)C)NC(=O)[C@H](Cc1ccccc1)NC(=O)[C@H](CCCCN)NC(=O)[C@H](CO)NC(=O)[C@H](Cc1ccccc1)NC(=O)[C@H](Cc1c[nH]c2ccccc12)NC(=O)[C@H](CCC(N)=O)NC(=O)[C@@H](NC(=O)[C@H](Cc1ccccc1)NC(=O)CCCCCNC(=O)CN1CCN(CC(=O)O)CCN(CC(=O)O)CCN(CC(=O)O)CC1)C(C)C)C(=O)N[C@@H](CCC(=O)O)C(=O)N1CCC[C@H]1C(=O)N[C@@H](CC(=O)O)C(=O)N[C@H](C(=O)N[C@@H](CO)C(=O)N[C@@H](CCC(N)=O)C(=O)N[C@H](C(=O)N[C@@H](CCC(N)=O)C(=O)N[C@@H](CC(=O)O)C(=O)N1CCC[C@H]1C(=O)N[C@@H](CC(N)=O)C(=O)N[C@@H](CC(=O)O)C(=O)N[C@@H](CCC(N)=O)C(=O)N[C@@H](Cc1ccc(O)cc1)C(=O)N[C@@H](CCC(=O)O)C(=O)N1CCC[C@H]1C(=O)N[C@@H](Cc1ccccc1)C(=O)O)C(C)C)C(C)C [copper-64 labelled] | – | C57BL/6 mice, blood | added: LPS 3 mg/kg intratracheal | – | tissue uptake | 1.19 ± 0.2 %ID/g |
| N=C(N)NCCC[C@@H](NC(=O)[C@H](N)Cc1c[nH]c2ccccc12)C(=O)N[C@H](CCCCN)C(=O)N[C@H](Cc1c[nH]c2ccccc12)C(=O)N[C@H](CCCNC(=N)N)C(=O)N[C@H](CCCCN)C(=O)N[C@H](Cc1c[nH]c2ccccc12)C(=O)N[C@H](CCCNC(=N)N)C(=O)N[C@H](CCCCN)C(=O)N[C@H](Cc1c[nH]c2ccccc12)C(=O)N[C@H](CCCNC(=N)N)C(=O)N[C@H](CCCCN)C(N)=O | – | mouse | intraperitoneal, 40 mg/kg single dose, day 4 | – | survival | 75% |
| CCCCCCCCCCCCCCCC(=O)N[C@@H](CCC(=O)NCCOCCOCCC(=O)NCCOCCOCCC(=O)NCCCC[C@H](NC(=O)[C@H](CC(=O)O)NC(=O)[C@H](CC(C)C)NC(=O)[C@H](Cc1ccc(O)cc1)NC(=O)[C@H](CCCCN)NC(=O)[C@H](CO)NC(=O)[C@H](Cc1ccc(O)cc1)NC(=O)[C@H](CC(=O)O)NC(=O)[C@H](CO)NC(=O)[C@@H](NC(=O)[C@H](Cc1ccccc1)NC(=O)[C@@H](NC(=O)CNC(=O)[C@H](CCC(N)=O)NC(=O)[C@@H](CO)NC(=O)[C@@H](N)Cc1c[nH]cn1)[C@@H](C)O)[C@@H](C)O)C(=O)N[C@@H](CCCNC(=N)N)C(=O)N[C@@H](CCCNC(=N)N)C(=O)N[C@@H](C)C(=O)N[C@@H](CCC(N)=O)C(=O)N[C@@H](CC(=O)O)C(=O)N[C@@H](Cc1ccccc1)C(=O)N[C@H](C(=O)N[C@@H](CCC(N)=O)C(=O)N[C@@H](Cc1c[nH]c2ccccc12)C(=O)N[C@@H](CC(C)C)C(=O)N[C@@H](CC(C)C)C(=O)N[C@@H](CC(N)=O)C(=O)N[C@H](C(=O)NCC(=O)NCC(=O)N1CCC[C@H]1C(=O)N[C@@H](CO)C(=O)N[C@@H](CO)C(=O)NCC(=O)N[C@@H](C)C(=O)N1CCC[C@H]1C(=O)N1CCC[C@H]1C(=O)N1CCC[C@H]1C(=O)N[C@@H](CO)C(N)=O)[C@@H](C)O)C(C)C)C(=O)O | refers to: ALT | rhesus monkey, male | subcutaneous, 60 µg/kg once daily, 28 days | – | serum enzyme activity | 47.3 ± 13.3 U/L |
| COc1cnc2cccc(N3CCc4c(cc(Cn5ccnc5)cc4-c4cn(C)nc4C(F)(F)F)C3=O)c2c1 | – | CD-1 mouse | intraperitoneal, 150 mg/kg once daily, day 4, dose-escalation tolerability | reference: day 1 | body weight change | 6.9% |
| CC(=O)NCCCC[C@@H]1NC(=O)[C@H](Cc2c[nH]c3c(C)cccc23)NC(=O)[C@H]([C@@H](C)O)NC(=O)[C@H](CC(N)=O)NC(=O)[C@@H](NC(C)=O)C(C)(C)SSC(C)(C)[C@@H](C(=O)N[C@@H](Cc2ccc(OCCN)cc2)C(=O)N[C@@H](Cc2ccc3ccccc3c2)C(=O)NC2(C(=O)N[C@@H](CCC(=O)O)C(=O)N[C@@H](CC(N)=O)C(=O)N[C@@H](Cc3cccnc3)C(=O)N(C)CC(N)=O)CCOCC2)NC1=O | – | dog, blood | 0.13 µM, 2 h | – | blood to plasma ratio | 0.83 ± 0.06 |
| Cc1ccccc1-c1ccc(-c2nc(-c3ccc(CN(C)CCCC(=O)O)c([18F])c3)no2)cc1C(F)(F)F | – | rat, lung | 2 h | – | tracer uptake | 0.44 %ID/g |
| CC1(C)C(=O)N(c2ccc(C#N)c(C(F)(F)F)c2)C(=S)N1c1ccc(C(=O)O)c(F)c1 | – | human, male, plasma | oral, 160 mg, single dose, fasting | – | AUC(0-inf) | 65300 ± 17200 ng·h/mL |
| O=C1NC2(CC2)COc2ncc(F)cc2[C@H]2COCCN2c2ccn3ncc1c3n2 | – | Sprague-Dawley rat, female, serum | oral, 20 mg/kg/day, end of recovery, 4-week repeated-dose toxicity | – | albumin/globulin ratio | 2.22 ± 0.26 |

A few entries again:
| Structure (SMILES) | assay | test system | conditions | how to read | endpoint | result |
| --- | --- | --- | --- | --- | --- | --- |
| COc1cnc2cccc(N3CCc4c(cc(Cn5ccnc5)cc4-c4cn(C)nc4C(F)(F)F)C3=O)c2c1 | – | CD-1 mouse | intraperitoneal, 150 mg/kg once daily, day 4, dose-escalation tolerability | reference: day 1 | body weight change | 6.9% |
